Experimental data of several laboratories.
Compare with care: the assays were run in different laboratories. “And” joins repeats or separate records; there may be more than shown.

Substance	tested on	test	system	setting	scale	endpoint	result
S ectodomain, GCN4 trimerization motif R717S (Murine hepatitis virus)	itself	native MS	–	–	–	subunits per oligomer	3
HA/fibritin foldon extracellular domain, trimeric (Influenza A virus)	itself	SEC	–	–	–	subunits per oligomer	3
HIV-1 capsid CTD T188C, C188-C188 disulfide dimer (HIV-1)	itself	SEC-MALS	–	oxidised disulfide	–	subunits per oligomer	2
HA soluble ectodomain, foldon (influenza A virus H1N1)	itself	SEC	–	–	–	subunits per oligomer	3
comFB (Vibrio cholerae)	itself	SEC-MALS	–	–	–	subunits per oligomer	2
Spike receptor binding domain (SARS-CoV-2)	itself	SEC-MALS	–	–	–	subunits per oligomer	550 monomers per nanoparticle
NA head domain (Influenza A virus H3N2)	itself	crystal structure	–	–	–	subunits per oligomer	4
HA (influenza A virus)	itself	SEC	–	–	–	subunits per oligomer	> 9 HA monomers
MPER/Fluc-Ec2 (HIV-1/Escherichia coli)	itself	crystal structure	–	–	–	subunits per oligomer	2
UL10 (duck plague virus)	itself	western blot	–	–	–	subunits per oligomer	3
RSV F/foldon soluble ectodomain S190F/V207L/D486H/E487Q/F488W/D489H (respiratory syncytial virus)	itself	SEC	–	–	–	subunits per oligomer	3
NP (influenza A virus)	itself	SEC	–	–	–	subunits per oligomer	4
NP (UniProt P03466)	itself	negative-stain electron microscopy	–	–	–	subunits per oligomer	3 protomers per ring and 5 protomers per ring
F ectodomain (Hendra virus)	itself	cryo-EM	–	–	–	subunits per oligomer	9 and 3
gamma-KTx 2.2 (Mesobuthus martensii)	itself	crystal structure	–	–	–	subunits per oligomer	4
integrase catalytic core domain F185H (HIV-1)	itself	native MS	–	–	–	subunits per oligomer	2
NA head domain (Influenza A virus H1N1)	itself	cryo-EM	–	–	–	subunits per oligomer	4
LPKEITVAT	–	AIM	peptide, CD8+ T cells from PBMC, human donors	HLA-B*07:02 restricted, unit not given	baseline: positive over tested donors	frequency of responding donors	50
rubrerythrin (Burkholderia pseudomallei, UniProt Q3JK21)	itself	SEC	–	–	–	subunits per oligomer	2
integrase mature (HIV-1)	itself	negative stain electron microscopy	–	–	–	subunits per oligomer	8
HA trimeric ectodomain (H7N1 influenza A virus)	itself	cryo-EM	–	–	–	subunits per oligomer	3
IAATRGATVVIGTSK	human CD4 T cells	AIM	peptide	–	–	responding donors	6%
Argonaute (Clostridium perfringens)	itself	SEC	–	–	–	subunits per oligomer	2

Repeated from above:
Substance	tested on	test	system	setting	scale	endpoint	result
rubrerythrin (Burkholderia pseudomallei, UniProt Q3JK21)	itself	SEC	–	–	–	subunits per oligomer	2
integrase mature (HIV-1)	itself	negative stain electron microscopy	–	–	–	subunits per oligomer	8
HA trimeric ectodomain (H7N1 influenza A virus)	itself	cryo-EM	–	–	–	subunits per oligomer	3
